Published values pooled from the literature.
Every numbered part comes from another study and shows a few of its results, in no order. Changes are numbered by the printed parent chain.

Study 1
Target: CCNE2, cyclin fold, Cln2 fusion (human)
Technique: yeast growth competition, sequencing
Matrix: yeast
Setting: strong parent motif
Reference: not given
Reading: higher = stronger binding
Parent: E2F1 docking peptide (human); PPVKRRLDLETDH; partner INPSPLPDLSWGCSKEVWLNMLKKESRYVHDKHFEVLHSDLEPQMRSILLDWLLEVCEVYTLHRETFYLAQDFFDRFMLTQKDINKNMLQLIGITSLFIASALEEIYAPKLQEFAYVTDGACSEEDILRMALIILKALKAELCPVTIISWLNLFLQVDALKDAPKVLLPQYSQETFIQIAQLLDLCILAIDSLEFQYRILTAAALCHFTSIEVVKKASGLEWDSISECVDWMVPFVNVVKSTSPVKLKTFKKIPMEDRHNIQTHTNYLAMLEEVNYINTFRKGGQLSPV
Variant | normalised enrichment score
T11V | 1.4
P1H | 1.35
P1T | 1.18
R5N | -0.226
V3A | 2.02
T11M | 0.856
R6M | 0.673
V3E | -0.077
R6W | 0.191
T11R | 0.739
D8A | 1.01
K4D | 0.253
R5V | -0.0971
D12H | 1.68
E10Y | 0.83
P2W | 0.931
P2G | 1.65
H13M | 1.57

Study 2
Target: Histone acetyltransferase KAT6A, winged helix 2, GST fusion (KAT6A, Homo sapiens, UniProt Q92794, residues 85-181)
Technique: protein binding microarray
Molecule type: double-stranded DNA, one strand shown
Matrix: in vitro
Tested at: not given
Setting: 8-mer, flanks averaged, mean of 2 arrays, mostly near background
Reference: not given
Reading: higher = stronger binding
Construct (chain): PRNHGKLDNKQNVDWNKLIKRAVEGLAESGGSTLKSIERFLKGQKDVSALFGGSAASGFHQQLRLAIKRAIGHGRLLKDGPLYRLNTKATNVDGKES
Oligonucleotide | E-score
CAGGAGAG | 0.0678
GTTACCAA | 0.0469
TCGGGAAA | 0.197
ATTATTGC | -0.00996
GGGGAAAA | -0.0814
CAGTGCGA | -0.0783
CGGTGGCC | 0.17
CATGGTGC | 0.0487
CTCACTTC | -0.0613
AGATGAGG | -0.131
GTGGTTAA | -0.0352
GTACCTAA | -0.15
ATACATTG | -0.103
ATGTTTGC | -0.12
GGTGATCA | 0.0481
TAATACCA | -0.0183
AGGAGCAT | 0.0117
ACAAGCAG | -0.0602
CCGGGCGC | 0.252
CCTTCTCC | 0.0218
GGGACTTA | -0.0762
AGCCTGGG | 0.172
TCATGCGA | 0.063
AGCGTAAG | -0.0179
TAAGTTAA | 0.0501

Study 3
Target: Ras GTPase-activating protein-binding protein 1, full length (G3BP1, Homo sapiens, UniProt Q13283)
UniProt Q13283, sequence (whole entry, looked up): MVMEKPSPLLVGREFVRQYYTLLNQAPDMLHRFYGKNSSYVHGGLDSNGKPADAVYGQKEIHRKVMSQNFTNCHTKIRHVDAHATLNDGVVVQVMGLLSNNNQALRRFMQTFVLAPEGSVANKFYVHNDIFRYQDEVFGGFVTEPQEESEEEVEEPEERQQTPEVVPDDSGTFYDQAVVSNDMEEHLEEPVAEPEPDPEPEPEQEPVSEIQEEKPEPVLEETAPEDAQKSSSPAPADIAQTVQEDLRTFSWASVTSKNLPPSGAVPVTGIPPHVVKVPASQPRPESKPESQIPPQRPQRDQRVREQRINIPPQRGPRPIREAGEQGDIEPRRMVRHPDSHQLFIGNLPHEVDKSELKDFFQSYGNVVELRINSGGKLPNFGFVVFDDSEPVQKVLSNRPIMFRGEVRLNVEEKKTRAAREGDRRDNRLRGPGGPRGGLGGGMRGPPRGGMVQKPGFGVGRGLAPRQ
Technique: RNA Bind-n-Seq
Molecule type: RNA
Matrix: in vitro
Tested at: 200 nM
Setting: whole 134-nt RNA, ends assumed
With: 150 mM KCl
Reference: input library
Reading: higher = stronger binding
All sequences stand within: GGGAGUUCUACAGUCCGACGAUC … UGGAAUUCUCGGGUGUCAAGG
Oligonucleotide | log2 enrichment
UCCUCAAGUCCUGUGCUACACAUCGUAUGUACCGAAUCGGGGUGGUGGUGGAAAGUAUUAUGUUACGCCGUUCGGAUCUGCACUUCCAGC | -0.108
ACCAUGCAAGUGGGCAUCUUUGGGAAGUGGGGCAAGGGGGGGAUAGGGAGGGGGGUAACACUUUGGGAACAGGUGGUCCCAGGUCGUUUC | 1.05
UGGCCCUGGUGGCGUGCGGGGAGGAAGAGGUGGCCUCAUGGAUCGUGGUGGUCCCGGUGGAAUGUUCAGAGGUGGCCGUGGUGGAGACAG | 0.928
UUUAGGUGUUAGACGGUACCGACAACCAGUAUUUGGGCCUGCAGAUUGGACAGCCCCAGGAUGAAGAUGAGGAAGCCACAGGUAUUCUUC | -2.02
CAAGUCCUGUGCUACACAUCGUAUGUACCGAAUCGGGAGGGAAAAAAAGGGUGGGAAAGUAUUAUGUUACGCCGUUCGGAUCUGCACUUC | 0.383
CUCAAGUCCUGUGCUACACAUCGUAUGUACCGAAUCGGGGAGGGAGGGGAGGGAAAGUAUUAUGUUACGCCGUUCGGAUCUGCACUUCCA | 1.5
UGGCACUGGUGGCAUGCGGGGAGGAAGAGGUGGCCUCAUGGAUCGUGGUGGUCCCGGUGGAAUGUUCAGAGGUGGCCGUGGUGGAGACAG | 0.481
CCUCAAGUCCUGUGCUACACAUCGUAUGUACCGAAUCGGUGGGGUGGGUGGGAAAGUAUUAUGUUACGCCGUUCGGAUCUGCACUUCCAG | 1.13
AGUCCUGUGCUACACAUCGUAUGUACCGAAUCGGGGAAAAAGGGGUGGGGAAAGGGGAAAGUAUUAUGUUACGCCGUUCGGAUCUGCACU | 0.186
UGGCCCUGGUGGCAUGCGGGGAGGGAGAGGUGGCCUCAUGGAUCGUGGUGGUCCCGGUGGAAUGUUCAGAGGUGGCCGUGGUGGAGACAG | 0.856

Study 4
Target: RNA binding protein fox-1 homolog 2, RRM domain, GST-SBP tag (RBFOX2, Homo sapiens, UniProt O43251-10, residues 100-194)
Technique: RNA Bind-n-Seq
Molecule type: RNA
Matrix: in vitro
Tested at: 365 nM
Setting: natural RNA segment, single round, ends assumed
Reference: no-protein control
Reading: higher = stronger binding
All sequences stand within: GGGAGUUCUACAGUCCGACGAUC … UGGAAUUCUCGGGUGCCAA
Residues (chain): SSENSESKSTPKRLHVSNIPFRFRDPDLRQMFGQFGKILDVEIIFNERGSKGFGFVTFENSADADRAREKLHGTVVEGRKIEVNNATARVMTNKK
Oligonucleotide | RBNS enrichment (R)
CACAAGGGCCAGGCUCCAUUCUCCCUCCCUUUCCACCAGUGCCACAGCCUCGUCUGGAAAAAGGACCAGGGGUCCCGGAGGAACCCAUUUGUGCUCUGCUUGGACAGCAG | 0.43
UUUCAUUUUACAGUUACUUUUCCUUGCAUACAAACAAGCAUAUAAAAUGGCAACAAACUGCACAUGAUUUCACAAAUAUUAAAAAGUCUUUUAAAAAGUAUUGCCAAACA | 1.52
ACUCAAAUCAGCUGGCUAUUUGAAGAUGGCAAAGAAUAUAGUUCUGAAAUUUUAUUUUUCCACAACAGGGUGAUUGGCAGUGGUUGUUCUCCCUUUUUCUGACAGUGUGG | 0.954
GGGCAUUGUCUUCCUUGUAUAUGUUUGUCAUAUUUCAUUUCACCAAAUAAACACAUACUCAUUGUGAACUCUCUGUUGUUGUCCAUUUCAAAUCUGGAUUGUUCUGUGAA | 1.16
UCCGGAGAGCACCCCAGCAGCAUCCAGAAGCAGCUGCAGUGUUGCUGCCACCACCCUCCUGUCUGCCUCUUCAAAGUCUCCUGUGACAUUUUUUCUUUGGUCAGAAGCCA | 0.416
CUUUCUGGCCCUUCCCCGCUCCUAGUUACUAGAUGACCAUACUCAUACUUGCAAAGGAGAGGAGAGAGUGCUAAAGCCUGGUUCUGACUGAGGGCUCUGCGUCCCUGCAG | 0.248
AAAACAUAGAAGUCAUUGUUAGUCUUGAAUUCAGCAAGCGUUAAUCAAUCUAUAUUUAAUUCAGUUCAGUGGCAUUCAUUAAGGAUGAAUUAAUCACUAUAGGAUUAAGC | 0.385
GAGACUGCAGGUGGGGGAGGUGGUGGGUUUUGGGGGGAUGUCCCCUAAUCCAGGAGUGCCCCCUCACUUGUCACCGAGUCUCCUCUAUUGCCUGCCUCUGCUGUGAAUUA | 2.15
GGUGGGGGCUCCUGCCCUCCUCCAACAACCCAGGACACCCACGCCUCACCCCUCGGUGCCUGGGCCCAGCCCCGUGCCCCUCCGUCUGCCUCCGCACGGCUGGCAGAGGG | 0.4
GGAAGCUUAGGGCACAUUGGUUCCAGCCUAGCCAGUUUCUCACCCUGGGUUGGGGUCCCCCAGCAUCCAGACUGGAAACCUACCCAUUUUCCCCUGAGCAUCCUCUAGAU | 0.392
GGGAACGGGUGUGAGCAGCUCUGGCUCCUGACCCUCACCGGGUCCGCUUUGCCCCAGUGAAGAGACAGCAUUCCUUCCUGUGCAGACCUGAGUGCAGAGUGUGUCCAUCU | 0.299
AAUUAAAUUAUUUAUAUAUUUUUGAAACCCGAAUUGAAAAUGUUGCAGGCAACGGGCUACAGCUUUAUUAGUGGUUCUCUAACUGUGGUCUCCUUGGGCCAAGCAAUUUC | 1.06

Repeated from above (study 1):
Variant | normalised enrichment score
R5V | -0.0971
D12H | 1.68
T11R | 0.739
P2W | 0.931
